Measurements pooled from the literature.
Each line is one published result; not all experiments were run side by side.

The MIC of `N=C(N)c1ccc(OCCC(CCOc2ccc(C(=N)N)cc2)c2ccccc2)cc1` (stereo not shown) is reported as greater than 200 µg/mL (Escherichia coli; 552100; compound alone).
`C#CCON=C1C=CC(=C(C#N)c2ccccc2)C=C1` has an MIC of 32 µg/mL (Candida parapsilosis; broth dilution; ATCC 22099; 48 h, 37 °C).
`CC1(C)SC2C(NC(=O)C(NC(=O)C3=C(O)C(Cc4ccc(O)cc4)NC3=O)c3ccccc3)C(=O)N2C1C(=O)O` (stereo not shown) has an MIC of 12.5 µg/mL (Escherichia coli; broth microdilution; ATCC 25922 wild type; added: clavulanic acid 6 µg/mL).
`CN[C@H](CC(C)C)C(=O)N[C@H]1C(=O)N[C@@H](CC(N)=O)C(=O)N[C@H]2C(=O)N[C@H]3C(=O)N[C@H](C(=O)N[C@H](C(=O)O)c4cc(O)cc(O)c4-c4cc3ccc4O)[C@H](O)c3ccc(c(Cl)c3)Oc3cc2cc(c3O[C@@H]2O[C@H](CO)[C@@H](O)[C@H](O)[C@H]2O[C@H]2C[C@](C)(N)[C@H](O)[C@H](C)O2)Oc2ccc(cc2Cl)[C@H]1O` has an MIC of 0.7 µg/mL (Bacillus cereus; ATCC 13061).
The MIC of `CC(C)/N=c1\cc2n(-c3ccc(Cl)cc3)c3ccccc3nc-2cc1Nc1ccc(Cl)cc1` is reported as 3.75 µM (Mycobacteroides abscessus; bacterial growth; ATCC 19977).
For `CC1(C)S[C@@H]2[C@H](NC(=O)[C@H](N)c3ccccc3)C(=O)N2[C@H]1C(=O)O`, the MIC was 1.56 µg/mL (Escherichia coli; broth microdilution; ATCC 25922 wild type; no clavulanic acid).
`COc1cccc(CNc2ccc(C(=O)O)cc2)c1` gave an MIC of 256 µg/mL (Enterococcus).
With `Cc1ccc(C(C)C)c(OC2=C(Cl)C(=O)c3ccccc3C2=O)c1` the MIC was 10 µg/mL (Bacillus cereus; broth microdilution; MTCC 430).
For `Cc1c(CN(C)C(=O)/C=C/c2cnc3c(c2)CCC(=O)N3)oc2ccccc12`, the MIC was greater than 32 µg/mL (Escherichia coli; broth microdilution; AR-0085).
`C=CCO/N=c1\cc2n(-c3ccc(Cl)cc3)c3ccccc3nc-2cc1Nc1ccc(Cl)cc1` has an MIC of greater than 30 µM (Mycobacteroides abscessus; bacterial growth; ATCC 19977).
`C[C@@H]1[C@H](O)[C@@H](C)/C=C/C=C/C=C/C=C/C=C/C=C/C=C/[C@H](O[C@@H]2O[C@H](C)[C@@H](O)[C@H](N)[C@@H]2O)C[C@@H]2O[C@](O)(C[C@@H](O)C[C@@H](O)[C@H](O)CC[C@@H](O)C[C@@H](O)CC(=O)O[C@H]1C)C[C@H](O)[C@H]2C(=O)O` has an MIC of 32 µg/mL (Candida parapsilosis; broth dilution; ATCC 22099; 48 h, 37 °C).
With `CC1(C)SC2C(NC(=O)C(NC(=O)C3=C(O)C(Cc4ccsc4)NC3=O)c3ccccc3)C(=O)N2C1C(=O)O` (stereo not shown) the MIC was 6.25 µg/mL (Escherichia coli; broth microdilution; ATCC 25922 wild type; added: clavulanic acid 6 µg/mL).
The MIC of `C[C@@H](O)[C@H]1C(=O)N2C(C(=O)O)=C(S[C@@H]3CN[C@H](C(=O)N(C)C)C3)[C@H](C)[C@H]12` is reported as no more than 0.5 µg/mL (Salmonella enterica Derby; broth microdilution; clinical isolate RKI 270/14).
`CO/N=c1\cc2n(-c3ccc(Cl)cc3)c3ccccc3nc-2cc1Nc1ccc(Cl)cc1` has an MIC of greater than 30 µM (Mycobacteroides abscessus; bacterial growth; ATCC 19977).
For `O=C(CNc1ccc(Cl)cc1)NC1C2CC3CC(C2)CC1C3` (stereo not shown), MIC read “inactive” (Mycobacteroides abscessus; broth microdilution; 120 h).
With `CNC(C)C1CCC(N)C(OC2C(N)CC(N)C(OC3OCC(C)(O)C(NC)C3O)C2O)O1` (stereo not shown) the MIC was greater than 8 µg/mL (Pseudomonas aeruginosa; clinical isolate RKI-No_480/15).
For `O/N=c1\cc2n(-c3ccc(Cl)cc3)c3ccccc3nc-2cc1Nc1ccc(Cl)cc1`, the MIC was greater than 30 µM (Mycobacteroides abscessus; bacterial growth; ATCC 19977).
With `O=C(O)c1ccc(NCc2ccc(Cl)cc2)cc1` the MIC was 128 µg/mL (Enterococcus).
With `C=C1C(=O)O[C@@H](CCCCCCCCCCCCC)[C@@H]1C(=O)O` the MIC was 32 µg/mL (Candida parapsilosis; CP1).
The MIC of `N=C(N)c1ccc(OCc2ccc(Br)cc2COc2ccc(C(=N)N)cc2)cc1` is reported as greater than 200 µg/mL (Escherichia coli; mcr-3 polymyxin-resistant; compound alone).
The MIC of `COc1cccc(CNc2ccc(C(=O)O)cc2)c1OC` is reported as 256 µg/mL (Enterococcus).
`C[C@H](NC(=O)CO/N=c1\cc2n(-c3ccc(Cl)cc3)c3ccccc3nc-2cc1Nc1ccc(Cl)cc1)C(=O)O` has an MIC of greater than 30 µM (Mycobacteroides abscessus; bacterial growth; clinical isolate).
With `CCCCCCCCCC(=O)N[C@@H](Cc1c[nH]c2ccccc12)C(=O)N[C@H](CC(N)=O)C(=O)N[C@@H](CC(=O)O)C(=O)N[C@@H]1C(=O)NCC(=O)N[C@@H](CCCN)C(=O)N[C@@H](CC(=O)O)C(=O)N[C@H](C)C(=O)N[C@@H](CC(=O)O)C(=O)NCC(=O)N[C@H](CO)C(=O)N[C@@H]([C@H](C)CC(=O)O)C(=O)N[C@@H](CC(=O)c2ccccc2N)C(=O)O[C@@H]1C` the MIC was 0.25 µg/mL (Enterococcus; broth microdilution; VRE 155, Mueller-Hinton broth, Mg2+ 10 mg/L; 16 h, added: Ca2+ 2.5 mM).
With `N=C(N)c1cccc(OCc2ccc(COc3cccc(C(=N)N)c3)cc2)c1` the MIC was greater than 200 µg/mL (Escherichia coli; BW25113; compound alone, vancomycin checkerboard).
With `CCCCCCCCCC(=O)N[C@@H](Cc1c[nH]c2ccccc12)C(=O)N[C@H](CC(N)=O)C(=O)N[C@@H](CC(=O)O)C(=O)N[C@@H]1C(=O)NCC(=O)N[C@@H](CCCN)C(=O)N[C@@H](CC(=O)O)C(=O)N[C@H](C)C(=O)N[C@@H](CC(=O)O)C(=O)NCC(=O)N[C@H](CO)C(=O)N[C@@H]([C@H](C)CC(=O)O)C(=O)N[C@@H](CC(=O)c2ccccc2N)C(=O)O[C@@H]1C` the MIC was 1 µg/mL (Staphylococcus aureus; SH1000; added: phosphatidylcholine, molar ratio 2).
With `O=C(O)CNC(=O)CO/N=c1\cc2n(-c3ccc(Cl)cc3)c3ccccc3nc-2cc1Nc1ccc(Cl)cc1` the MIC was 15 µM (Mycobacteroides abscessus; bacterial growth; ATCC 19977).
`O=c1c(O)c(-c2ccc(O)cc2)oc2cc(O[C@@H]3O[C@H](CO)[C@@H](O)[C@H](O)[C@H]3O)cc(O)c12` gave an MIC of 100 µg/mL (Streptococcus gordonii; ATCC 51656).
`N=C(N)c1ccc(OCc2cc(Br)cc(COc3ccc(C(=N)N)cc3)c2)cc1` has an MIC of 3.13 µg/mL (Escherichia coli; W3110; in combination, checkerboard, added: rifampicin).
For `CC1(C)S[C@@H]2[C@H](NC(=O)[C@H](N)c3ccc(O)cc3)C(=O)N2[C@H]1C(=O)O`, the MIC was 8 µg/mL (Bacillus cereus; broth microdilution; MTCC 430).
`N#CC(=C1C=CC(=NOC(=O)OCc2ccccc2)C=C1)c1ccccc1` has an MIC of 16 µg/mL (Candida parapsilosis; broth dilution; ATCC 22099; 48 h, 37 °C).
With `C[C@H](NC(=O)CO/N=c1\cc2n(-c3ccc(Cl)cc3)c3ccccc3nc-2cc1Nc1ccc(Cl)cc1)C(=O)OC(C)(C)C` the MIC was greater than 30 µM (Mycobacteroides abscessus; bacterial growth; ATCC 19977).
